Measured values pooled from the literature.
Parts stem from different laboratories: compare values within a part only. Positions count from the first letter of the parent shown.

Study 1
Target: UDP-N-acetylglucosamine--peptide N-acetylglucosaminyltransferase 110 kDa subunit (OGT, Homo sapiens, UniProt O15294)
UniProt O15294, sequence (whole entry, looked up): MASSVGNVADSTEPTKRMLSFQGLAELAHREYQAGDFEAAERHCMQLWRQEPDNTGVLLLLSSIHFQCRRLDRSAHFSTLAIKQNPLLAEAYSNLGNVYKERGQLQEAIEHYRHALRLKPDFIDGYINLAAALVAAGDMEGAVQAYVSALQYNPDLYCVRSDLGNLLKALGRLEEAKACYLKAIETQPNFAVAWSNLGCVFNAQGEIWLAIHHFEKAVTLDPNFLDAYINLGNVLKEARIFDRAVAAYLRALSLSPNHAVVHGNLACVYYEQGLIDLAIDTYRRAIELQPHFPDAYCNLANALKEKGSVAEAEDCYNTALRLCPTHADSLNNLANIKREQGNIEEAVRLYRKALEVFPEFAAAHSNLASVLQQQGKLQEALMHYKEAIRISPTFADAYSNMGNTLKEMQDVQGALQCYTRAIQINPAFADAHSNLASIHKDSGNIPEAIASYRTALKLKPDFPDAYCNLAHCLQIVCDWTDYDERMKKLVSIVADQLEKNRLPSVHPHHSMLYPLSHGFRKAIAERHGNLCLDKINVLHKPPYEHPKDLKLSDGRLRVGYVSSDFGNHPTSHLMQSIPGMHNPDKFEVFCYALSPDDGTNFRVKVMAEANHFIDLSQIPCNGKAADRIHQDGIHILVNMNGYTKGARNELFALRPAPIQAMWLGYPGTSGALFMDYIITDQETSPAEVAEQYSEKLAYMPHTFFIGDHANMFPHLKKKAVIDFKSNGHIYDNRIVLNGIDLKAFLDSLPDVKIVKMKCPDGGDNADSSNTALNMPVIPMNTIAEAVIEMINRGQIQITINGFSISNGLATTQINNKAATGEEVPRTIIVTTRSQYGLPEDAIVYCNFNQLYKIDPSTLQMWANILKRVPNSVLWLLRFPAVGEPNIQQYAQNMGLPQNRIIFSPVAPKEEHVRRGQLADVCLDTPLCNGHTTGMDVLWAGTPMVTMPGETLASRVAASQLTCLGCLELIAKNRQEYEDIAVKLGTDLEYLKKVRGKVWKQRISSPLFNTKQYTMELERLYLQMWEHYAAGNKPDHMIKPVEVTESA
Read-out: binding
Method: phage display NGS
Form: peptide
Baseline: input library
Molecule	minimum log2 enrichment ratio
QPSRQHHAEHHPWHR	3.19
VEHRPHYHHDKQQGT	2.3
DMYEYRYKPHYVIQI	2.71
GQLMMTHHPQWRQV	1.07
QGDYMPFYQLRSKIT	2.63
IHYEPQYPITYKTYT	1.7
HSLMHKGHKHHVGDI	2.03
HFNQHHHFFAVPPYD	2.69
HFYTPHFHYEHARFQ	1.41
RADDYKPMYTIRFMR	3.22
TAPTHHGHHYASDHH	2.42

Study 2
Target: CCNA2, cyclin fold, Cln2 fusion (human)
Method: yeast growth competition, sequencing
Matrix: yeast
Notes: strong parent motif
Baseline: not given
Reading: higher = stronger binding
Starting sequence: viral docking peptide; YKVKRRLVFGADD
Change	normalised enrichment score
YKVKRRLNFGADD [V8N]	6.65
YKVKRRVVFGADD [L7V]	1.68
YKVKRRLVFGYDD [A11Y]	6.09
YNVKRRLVFGADD [K2N]	6.21
YKVKRRLVFHADD [G10H]	5.91
YKVKRRLVFGVDD [A11V]	6.39
YKVKRHLVFGADD [R6H]	5.11
YKVERRLVFGADD [K4E]	3.71
YKWKRRLVFGADD [V3W]	4.66
YKVKRRLVFGFDD [A11F]	6.28
YKVKRRLVHGADD [F9H]	0.643
YKVKRRLKFGADD [V8K]	6.6
YKVKRCLVFGADD [R6C]	5.62
YKDKRRLVFGADD [V3D]	0.498
YKVKRQLVFGADD [R6Q]	5.79
YKVKRRMVFGADD [L7M]	1.98
YKVKRRLVFGKDD [A11K]	6.29

Study 3
Target: inorganic phosphate, free oxyanion
Method: microfluidic competitive inhibition
Matrix: in vitro, cell-free expressed
Tested at: not given
Notes: derived from inhibition constants, unchanged parent 615000 nM
Reading: lower = stronger binding
Starting sequence: PafA, mature enzyme, eGFP fusion (Elizabethkingia meningoseptica, UniProt Q9KJX5); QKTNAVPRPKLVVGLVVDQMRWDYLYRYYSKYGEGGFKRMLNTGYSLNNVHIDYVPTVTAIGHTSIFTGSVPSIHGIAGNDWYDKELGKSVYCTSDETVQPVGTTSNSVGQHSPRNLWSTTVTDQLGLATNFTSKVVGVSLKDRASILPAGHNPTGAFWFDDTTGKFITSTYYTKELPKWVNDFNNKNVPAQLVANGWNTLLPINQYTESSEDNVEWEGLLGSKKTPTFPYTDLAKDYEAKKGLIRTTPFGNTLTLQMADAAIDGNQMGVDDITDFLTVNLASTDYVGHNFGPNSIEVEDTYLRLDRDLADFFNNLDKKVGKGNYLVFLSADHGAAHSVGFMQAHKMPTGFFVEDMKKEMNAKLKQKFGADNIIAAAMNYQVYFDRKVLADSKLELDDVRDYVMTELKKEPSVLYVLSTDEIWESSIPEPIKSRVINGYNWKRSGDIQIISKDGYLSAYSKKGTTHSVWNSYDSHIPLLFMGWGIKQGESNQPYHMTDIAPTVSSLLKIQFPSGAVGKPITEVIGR
Change	phosphate dissociation constant
H345G	581 µM
I447G	620 µM
K363G	522 µM
G219V	603 µM
V399A	654 µM
D397G	636 µM
K461V	680 µM
E424V	744 µM
T464G	276 µM

Other studies, line by line
Molecule	target	assay	test system	setting	how to read	quantity	value
PhoQ, residues 284 288 289 292 302 303 AGGLSV	PhoP, residues 12 14 15 18 19 SYFRT (Escherichia coli, UniProt P23836)	Sort-seq, item: YFP reporter	E. coli	PhoQ-PhoP variant library, added: 10 µM Mg2+	baseline: high Mg2+ state, higher = stronger signaling	fold induction	0.565

Some of these lines once more (study 2):
Change	normalised enrichment score
YKVKRRLVFGFDD [A11F]	6.28
YKVKRRLVHGADD [F9H]	0.643
YKVKRRLKFGADD [V8K]	6.6
YKVERRLVFGADD [K4E]	3.71
